Measured values from different studies.
Each line is one published result; not all experiments were run side by side. ± marks the error that the study gave.
B1: Runx2 (Mus musculus, UniProt Q08775); sequence looked up; chain MLHSPHKQPQNHKCGANFLQEDCKKALAFKWLISAGHYQPPRPTESVSALTTVHAGIFKAASSIYNRGHKFYLEKKGGTMASNSLFSAVTPCQQSFFWDPSTSRRFSPPSSSLQPGKMSDVSPVVAAQQQQQQQQQQQQQQQQQQQQQQQQQQQQQEAAAAAAAAAAAAAAAAAAVPRLRPPHDNRTMVEIIADHPAELVRTDSPNFLCSVLPSHWRCNKTLPVAFKVVALGEVPDGTVVTVMAGNDENYSAELRNASAVMKNQVARFNDLRFVGRSGRGKSFTLTITVFTNPPQVATYHRAIKVTVDGPREPRRHRQKLDDSKPSLFSDRLSDLGRIPHPSMRVGVPPQNPRPSLNSAPSPFNPQGQSQITDPRQAQSSPPWSYDQSYPSYLSQMTSPSIHSTTPLSSTRGTGLPAITDVPRRISDDDTATSDFCLWPSSLSKKSQAGASELGPFSDPRQFPSISSLTESRFSNPRMHYPATFTYTPPVTSGMSLGMSATTHYHTYLPPPYPGSSQSQSGPFQTSSTPYLYYGTSSASYQFPMVPGGDRSPSRMVPPCTTTSNGSTLLNPNLPNQNDGVDADGSHSSSPTVLNSSGRMDESVWRPY
B2: Cacna1c 1647-1777 (Mus musculus, UniProt Q01815); sequence looked up; chain NALSLQAGLRTLHDIGPEIRRAISGDLTAEEELDKAMKEAVSAASEDDIFRRAGGLFGNHVTYYQSDSRGNFPQTFATQRPLHINKTGNNQADTESPSHEKLVDSTFTPSSYSSTGSNANINNANNTALGR
B3: RelA/NFKB1 190-321 F309A; chain 1 NTAELKICRVNRNSGSCLGGDEIFLLCDKVQKEDIEVYFTGPGWEARGSFSQADVHRQVAIVFRTPPYADPSLQAPVRVSMQLRRPSDRELSEPMEFQYLPDTDDRHRIEEKRKRTYETAKSIMKKSPFNGP; chain 2 LKIVRMDRTAGCVTGGEEIYLLCDKVQKDDIQIRFYEEEENGGVWEGFGDFSPTDVHRQFAIVFKTPKYKDVNITKPASVFVQLRRKSDLETSEPKPFLYYPE
B4: PUX5 301-421 (Arabidopsis thaliana, UniProt Q7Y175); chain KNPFQGVGRTLGASGSGSSSAPQASSAPMNVAPAPSRGLVVDPAAPTTSIQLRLADGTRLVSRFNNHHTVRDVRGFIDASRPGGSKEYQLLTMGFPPKQLTELDQTIEQAGIANAVVIQKF
B5: LMNB1 (Homo sapiens, UniProt P20700); sequence looked up; chain MATATPVPPRMGSRAGGPTTPLSPTRLSRLQEKEELRELNDRLAVYIDKVRSLETENSALQLQVTEREEVRGRELTGLKALYETELADARRALDDTARERAKLQIELGKCKAEHDQLLLNYAKKESDLNGAQIKLREYEAALNSKDAALATALGDKKSLEGDLEDLKDQIAQLEASLAAAKKQLADETLLKVDLENRCQSLTEDLEFRKSMYEEEINETRRKHETRLVEVDSGRQIEYEYKLAQALHEMREQHDAQVRLYKEELEQTYHAKLENARLSSEMNTSTVNSAREELMESRMRIESLSSQLSNLQKESRACLERIQELEDLLAKEKDNSRRMLTDKEREMAEIRDQMQQQLNDYEQLLDVKLALDMEISAYRKLLEGEEERLKLSPSPSSRVTVSRASSSRSVRTTRGKRKRVDVEESEASSSVSISHSASATGNVCIEEIDVDGKFIRLKNTSEQDQPMGGWEMIRKIGDTSVSYKYTSRYVLKAGQTVTIWAANAGVTASPPTDLIWKNQNSWGTGEDVKVILKNSQGEEVAQRSTVFKTTIPEEEEEEEEAAGVVVEEELFHQQGTPRASNRSCAIM
B6: CCL14 28-93 (UniProt Q16627-1); sequence looked up; chain GPYHPSECCFTYTTYKIPRQRIMDYYETNSQCSKPGIVFITKRGHSVCTNPSDKWVQDYIKDMKEN
B7: GIGYF2 35-105 E46A/E47F/Q89A (Homo sapiens, UniProt Q6Y7W6-1); chain KYKLADYRYGRAFMLALFLKDNKIPSDLLDKEFLPILQEEPLPPLALVPFTEEEARNFSMSVNSAAVLRLT
B8: TIMP2 27-153 (Homo sapiens, UniProt P16035); sequence looked up; chain CSCSPVHPQQAFCNADVVIRAKAVSEKEVDSGNDIYGNPIKRIQYEIKQIKMFKGPEKDIEFIYTAPSSAVCGVSLDVGGKKEYLIAGKAEGDGKMHITLCDFIVPWDTLSTTQKKSLNHRYQMGCE
B9: AAGAB 2-177 (Homo sapiens, UniProt Q6PD74); sequence looked up; chain AAGVPCALVTSCSSVFSGDQLVQHILGTEDLIVEVTSNDAVRFYPWTIDNKYYSADINLCVVPNKFLVTAEIAESVQAFVVYFDSTQKSGLDSVSSWLPLAKAWLPEVMILVCDRVSEDGINRQKAQEWCIKHGFELVELSPEELPEEDDDFPESTGVKRIVQALNANVWSNVVMK
UniProt P54609, sequence (whole entry, unmodified, looked up): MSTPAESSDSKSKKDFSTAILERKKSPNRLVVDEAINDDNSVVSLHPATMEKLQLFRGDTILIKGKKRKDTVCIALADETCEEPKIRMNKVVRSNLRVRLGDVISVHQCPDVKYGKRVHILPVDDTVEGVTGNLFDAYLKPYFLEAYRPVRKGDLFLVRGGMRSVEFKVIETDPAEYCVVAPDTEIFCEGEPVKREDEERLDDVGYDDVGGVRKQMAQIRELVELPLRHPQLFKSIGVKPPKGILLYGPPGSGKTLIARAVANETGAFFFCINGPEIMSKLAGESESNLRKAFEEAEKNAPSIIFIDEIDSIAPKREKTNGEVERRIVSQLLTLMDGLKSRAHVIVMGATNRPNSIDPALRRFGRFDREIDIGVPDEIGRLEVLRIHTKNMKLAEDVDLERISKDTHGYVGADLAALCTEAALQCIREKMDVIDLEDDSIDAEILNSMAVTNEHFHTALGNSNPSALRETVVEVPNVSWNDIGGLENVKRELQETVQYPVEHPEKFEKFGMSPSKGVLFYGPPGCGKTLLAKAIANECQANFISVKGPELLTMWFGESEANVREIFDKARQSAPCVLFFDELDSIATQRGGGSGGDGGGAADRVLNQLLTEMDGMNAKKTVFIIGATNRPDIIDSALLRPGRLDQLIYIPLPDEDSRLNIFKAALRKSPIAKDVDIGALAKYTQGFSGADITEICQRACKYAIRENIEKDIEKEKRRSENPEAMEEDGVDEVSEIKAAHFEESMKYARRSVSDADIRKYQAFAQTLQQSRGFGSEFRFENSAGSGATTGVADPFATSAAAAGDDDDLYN
UniProt P05787, sequence (whole entry, looked up): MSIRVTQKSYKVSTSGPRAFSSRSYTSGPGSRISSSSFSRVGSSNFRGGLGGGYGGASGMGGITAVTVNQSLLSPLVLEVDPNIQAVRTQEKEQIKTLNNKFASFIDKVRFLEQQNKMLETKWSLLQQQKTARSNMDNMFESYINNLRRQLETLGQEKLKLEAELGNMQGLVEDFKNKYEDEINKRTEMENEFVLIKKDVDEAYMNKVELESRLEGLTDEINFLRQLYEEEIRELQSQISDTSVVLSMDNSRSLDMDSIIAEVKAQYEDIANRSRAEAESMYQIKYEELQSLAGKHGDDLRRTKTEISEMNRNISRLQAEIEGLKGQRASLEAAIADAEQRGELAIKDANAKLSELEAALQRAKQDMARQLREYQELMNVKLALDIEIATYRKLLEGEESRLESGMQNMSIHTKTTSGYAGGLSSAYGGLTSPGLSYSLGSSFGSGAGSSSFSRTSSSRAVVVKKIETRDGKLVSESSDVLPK
UniProt Q14674, sequence (whole entry, looked up): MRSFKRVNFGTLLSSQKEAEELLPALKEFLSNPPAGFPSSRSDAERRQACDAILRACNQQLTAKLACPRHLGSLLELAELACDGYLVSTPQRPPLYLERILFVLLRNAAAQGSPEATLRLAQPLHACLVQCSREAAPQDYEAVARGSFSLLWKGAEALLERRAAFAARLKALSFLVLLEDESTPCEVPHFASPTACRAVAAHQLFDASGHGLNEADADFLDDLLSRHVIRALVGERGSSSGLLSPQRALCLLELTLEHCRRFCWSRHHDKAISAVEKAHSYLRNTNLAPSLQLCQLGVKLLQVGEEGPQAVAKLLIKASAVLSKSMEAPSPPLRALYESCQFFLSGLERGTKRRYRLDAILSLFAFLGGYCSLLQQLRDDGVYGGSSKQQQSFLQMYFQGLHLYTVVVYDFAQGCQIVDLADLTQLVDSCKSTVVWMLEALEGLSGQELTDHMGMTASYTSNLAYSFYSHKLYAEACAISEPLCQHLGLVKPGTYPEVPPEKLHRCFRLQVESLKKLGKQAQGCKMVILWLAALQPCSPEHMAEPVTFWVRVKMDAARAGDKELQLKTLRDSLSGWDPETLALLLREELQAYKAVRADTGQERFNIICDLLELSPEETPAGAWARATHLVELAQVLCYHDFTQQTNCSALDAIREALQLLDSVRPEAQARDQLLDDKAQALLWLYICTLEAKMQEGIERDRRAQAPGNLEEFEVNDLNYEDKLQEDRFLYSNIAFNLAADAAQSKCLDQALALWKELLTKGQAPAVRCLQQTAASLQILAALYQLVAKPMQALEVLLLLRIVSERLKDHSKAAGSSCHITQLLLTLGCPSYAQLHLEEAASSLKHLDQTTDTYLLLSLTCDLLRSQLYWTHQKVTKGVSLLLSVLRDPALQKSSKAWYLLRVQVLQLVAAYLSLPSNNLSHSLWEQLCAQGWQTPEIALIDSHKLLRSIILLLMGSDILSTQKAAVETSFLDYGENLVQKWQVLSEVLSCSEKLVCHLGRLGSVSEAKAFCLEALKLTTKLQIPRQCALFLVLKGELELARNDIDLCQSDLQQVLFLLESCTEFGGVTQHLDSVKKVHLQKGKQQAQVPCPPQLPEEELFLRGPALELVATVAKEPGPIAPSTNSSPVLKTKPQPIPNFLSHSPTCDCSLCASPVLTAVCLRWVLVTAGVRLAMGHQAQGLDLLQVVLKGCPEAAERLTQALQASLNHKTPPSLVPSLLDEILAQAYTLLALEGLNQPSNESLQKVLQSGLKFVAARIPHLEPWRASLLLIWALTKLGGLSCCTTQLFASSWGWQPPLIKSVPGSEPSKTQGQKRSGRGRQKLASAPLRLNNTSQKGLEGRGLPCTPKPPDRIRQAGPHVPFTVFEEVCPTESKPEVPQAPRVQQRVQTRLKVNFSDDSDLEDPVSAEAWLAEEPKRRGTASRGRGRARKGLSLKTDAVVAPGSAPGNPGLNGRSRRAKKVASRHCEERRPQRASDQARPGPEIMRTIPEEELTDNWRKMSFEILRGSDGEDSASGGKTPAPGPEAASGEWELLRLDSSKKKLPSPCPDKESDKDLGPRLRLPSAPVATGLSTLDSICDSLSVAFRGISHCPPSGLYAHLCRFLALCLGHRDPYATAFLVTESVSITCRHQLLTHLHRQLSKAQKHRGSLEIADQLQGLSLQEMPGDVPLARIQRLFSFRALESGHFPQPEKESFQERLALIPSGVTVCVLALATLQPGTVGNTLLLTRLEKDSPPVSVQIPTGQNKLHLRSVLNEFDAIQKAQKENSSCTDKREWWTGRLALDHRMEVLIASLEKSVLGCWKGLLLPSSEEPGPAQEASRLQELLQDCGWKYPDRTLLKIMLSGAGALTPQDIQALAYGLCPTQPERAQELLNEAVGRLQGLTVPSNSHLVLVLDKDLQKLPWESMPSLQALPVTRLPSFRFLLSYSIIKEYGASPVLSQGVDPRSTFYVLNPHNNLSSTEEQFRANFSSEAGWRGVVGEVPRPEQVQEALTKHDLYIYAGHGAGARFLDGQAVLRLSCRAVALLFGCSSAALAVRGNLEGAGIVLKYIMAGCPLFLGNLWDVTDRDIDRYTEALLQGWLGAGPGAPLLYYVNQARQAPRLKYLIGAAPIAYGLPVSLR
UniProt Q2MHE4, sequence (whole entry, looked up): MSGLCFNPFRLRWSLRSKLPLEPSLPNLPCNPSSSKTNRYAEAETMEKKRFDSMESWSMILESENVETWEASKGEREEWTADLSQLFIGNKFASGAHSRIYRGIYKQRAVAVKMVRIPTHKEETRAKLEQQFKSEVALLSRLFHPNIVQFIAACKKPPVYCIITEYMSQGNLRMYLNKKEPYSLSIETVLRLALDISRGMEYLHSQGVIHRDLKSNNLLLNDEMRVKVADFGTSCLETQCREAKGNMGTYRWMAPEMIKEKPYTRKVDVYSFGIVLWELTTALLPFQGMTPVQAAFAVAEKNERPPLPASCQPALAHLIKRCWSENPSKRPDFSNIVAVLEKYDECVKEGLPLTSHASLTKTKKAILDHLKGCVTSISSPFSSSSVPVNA
UniProt Q8VI67, sequence (whole entry, looked up): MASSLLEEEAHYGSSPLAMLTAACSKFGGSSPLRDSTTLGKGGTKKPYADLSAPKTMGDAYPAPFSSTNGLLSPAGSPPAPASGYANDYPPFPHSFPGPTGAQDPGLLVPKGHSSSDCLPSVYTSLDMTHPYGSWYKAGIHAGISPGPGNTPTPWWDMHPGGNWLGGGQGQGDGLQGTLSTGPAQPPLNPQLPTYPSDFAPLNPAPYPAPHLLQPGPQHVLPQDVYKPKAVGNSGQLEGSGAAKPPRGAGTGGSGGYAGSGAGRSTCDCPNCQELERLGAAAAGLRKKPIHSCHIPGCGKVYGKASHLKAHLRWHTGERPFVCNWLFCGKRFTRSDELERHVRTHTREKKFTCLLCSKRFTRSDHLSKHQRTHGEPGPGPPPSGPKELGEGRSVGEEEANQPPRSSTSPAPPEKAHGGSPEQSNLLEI
UniProt P09119, sequence (whole entry, looked up): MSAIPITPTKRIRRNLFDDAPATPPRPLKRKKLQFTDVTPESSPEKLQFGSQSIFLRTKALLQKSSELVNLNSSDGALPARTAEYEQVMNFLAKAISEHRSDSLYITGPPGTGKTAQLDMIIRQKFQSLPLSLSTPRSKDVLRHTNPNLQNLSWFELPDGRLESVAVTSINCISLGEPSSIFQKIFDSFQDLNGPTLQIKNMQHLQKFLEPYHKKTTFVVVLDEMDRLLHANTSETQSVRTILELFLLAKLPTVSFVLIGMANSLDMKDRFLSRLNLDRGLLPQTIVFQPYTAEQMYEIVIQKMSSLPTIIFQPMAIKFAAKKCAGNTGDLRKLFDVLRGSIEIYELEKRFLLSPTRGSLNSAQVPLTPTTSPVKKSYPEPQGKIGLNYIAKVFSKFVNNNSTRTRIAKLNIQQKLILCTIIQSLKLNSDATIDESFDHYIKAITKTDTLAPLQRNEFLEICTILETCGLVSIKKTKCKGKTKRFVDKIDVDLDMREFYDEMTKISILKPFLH
UniProt P25963, sequence (whole entry, unmodified, looked up): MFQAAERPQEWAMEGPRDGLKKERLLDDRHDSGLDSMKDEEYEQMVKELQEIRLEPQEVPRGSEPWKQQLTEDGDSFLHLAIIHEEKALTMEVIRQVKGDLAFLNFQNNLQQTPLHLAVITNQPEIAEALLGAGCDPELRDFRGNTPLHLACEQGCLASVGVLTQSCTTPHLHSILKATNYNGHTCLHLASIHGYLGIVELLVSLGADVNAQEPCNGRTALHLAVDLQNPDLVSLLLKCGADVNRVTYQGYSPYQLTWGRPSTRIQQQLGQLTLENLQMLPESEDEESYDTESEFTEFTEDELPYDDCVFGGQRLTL

Molecule | tested on | assay | test system | setting | how to read | quantity | result
FGG (Homo sapiens, UniProt P02679) | PCDH19 (Homo sapiens, UniProt Q8TAB3) | cross-linking MS | – | with: DSSO | – | cross-linked residues | K114 to K86
B1 (Runx2) | Sp7 (Mus musculus, UniProt Q8VI67) | luciferase reporter | epithelial cells | – | relative to: alone, higher = greater activity | OC promoter activity | 22 fold
CDC6 (Saccharomyces cerevisiae, UniProt P09119) | MCM7 (Saccharomyces cerevisiae, UniProt P38132) | cross-linking MS | – | hits only | – | interaction screen | cross-linked
MPK12 (Arabidopsis thaliana, UniProt Q8GYQ5) | HT1 (Arabidopsis thaliana, UniProt Q2MHE4) | SEC | – | – | – | subunits per oligomer | 1
GSGAGICTIV | human MAGI1-3/6 PDZ construct (MBP fusion) | surface plasmon resonance | peptide | concentration not given | higher = stronger binding | normalised SPR binding response | 12.3 normalised RU
B2 (Cacna1c 1647-1777) | Jph2 1-440 S165I (Mus musculus, UniProt Q9ET78) | ITC | – | – | – | Kd | 13800 nM
colistin | Enterobacter cloacae | – | clinical isolate RKI 308/13 | – | – | MIC | ≤ 0.5 µg/mL
PSPFTPPPPQTPSP (SOS1 proline-rich peptide, 1253-1266) | GRB2 1-58 (Homo sapiens, UniProt P62993) | NMR titration | peptide | – | – | chemical shift perturbation | 0.04 ppm
FGA (Homo sapiens, UniProt P02671) | ANO3 (Homo sapiens, UniProt Q9BYT9) | cross-linking MS | – | with: DSSO | – | cross-linked residues | K463 to K317
PDE4D3/GFP (Homo sapiens) | AKAP6 P1400S (Homo sapiens, UniProt Q13023-1) | co-IP | HEK293 | not purified, with: forskolin, IBMX | relative to: mAKAP precipitated, higher = more PDE4D3 bound | relative binding | 4.01
B3 (RelA/NFKB1 190-321 F309A) | NFKBIA 67-287 (Homo sapiens, UniProt P25963) | ITC | – | – | – | ΔH | -8 kcal/mol
B4 (PUX5 301-421) | CDC48A 1-463 (Arabidopsis thaliana, UniProt P54609) | ITC | – | – | – | ΔH | -5.71 ± 0.0956 kcal/mol
CYB5R4 (Homo sapiens, UniProt Q7L1T6) | NGB (Homo sapiens, UniProt Q9NPG2) | NO dioxygenation | – | 750 nM, 37 °C, wild type, with: NADH 200 µM | – | time | 150 s
ALB (Homo sapiens, UniProt P02768) | EMC2 (Homo sapiens, UniProt Q15006) | cross-linking MS | – | with: DSSO | – | cross-linked residues | K161 to K136
DSP C-terminal tail 1987-end (Homo sapiens) | KRT5 1-71 (Homo sapiens, UniProt P13647) | far-Western | – | – | relative to: 93-residue peptide, higher = more binding | relative binding | > 6 fold
NGVTKTIAEPRARVEKDYGK (gld-3 860-879 L867A (Caenorhabditis elegans, UniProt Q95ZK7); sequence looked up) | fbf-2 164-575 (Caenorhabditis elegans, UniProt Q09312) | fluorescence polarisation | peptide | – | relative to: wild-type GLD-3, higher = weaker competition | IC50 ratio | > 60 fold
B5 (LMNB1) | ESPL1 (Homo sapiens, UniProt Q14674) | proximity ligation | SV40 fibroblasts | overexpressed untagged WT lamin B1 | relative to: control cells, higher = stronger signal | PLA signal intensity | 2.5 fold
B6 (CCL14 28-93) | CCR1 (Homo sapiens, UniProt P32246) | competition with ligand, radioligand binding | – | with: 125I-streptavidin CCL3-biotin 400 pM | – | IC50 | 0.9 nM
B7 (GIGYF2 35-105 E46A/E47F/Q89A) | EIF4E2 52-234 Q159S/M161D/R202E (Homo sapiens, UniProt O60573-1) | ITC | peptide | – | – | molecule per partner | 1.01 ± 0.02
B8 (TIMP2 27-153) | MMP14 112-292 (Homo sapiens, UniProt P50281) | enzyme activity, inhibitor, fluorogenic peptide cleavage assay | – | – | – | Ki | 2.27 ± 0.34 nM
FGB (Homo sapiens, UniProt P02675) | CAPN12 (Homo sapiens, UniProt Q6ZSI9) | cross-linking MS | – | with: DSSO | – | cross-linked residues | K348 to K268
PTHrP fragment, unlabeled | PTH1R (Homo sapiens, UniProt Q03431) | competition with tracer, competitor, BRET | cells | in cells, with: tracer E35K TMR 70 nM | – | IC50 | 80 nM
EKPIDSETKM | human SCRIB PDZ3-4 tandem (MBP fusion) | automated holdup | peptide, crude extract | concentration not given, uncorrected, unit not given | relative to: biotin control resin, higher = stronger binding | binding intensity | 0.35
B9 (AAGAB 2-177) | AP1S3 (Homo sapiens, UniProt Q96PC3-1) | SEC | – | – | – | subunits per oligomer | 1
KRT8 (Homo sapiens, UniProt P05787) | AKAP9 (Homo sapiens, UniProt Q99996) | cross-linking MS | cells | with: iqPIR | – | cross-linked residues | K8 to K949

Excerpt of the above:
Molecule | tested on | assay | test system | setting | how to read | quantity | result
colistin | Enterobacter cloacae | – | clinical isolate RKI 308/13 | – | – | MIC | ≤ 0.5 µg/mL
CDC6 (Saccharomyces cerevisiae, UniProt P09119) | MCM7 (Saccharomyces cerevisiae, UniProt P38132) | cross-linking MS | – | hits only | – | interaction screen | cross-linked
B4 (PUX5 301-421) | CDC48A 1-463 (Arabidopsis thaliana, UniProt P54609) | ITC | – | – | – | ΔH | -5.71 ± 0.0956 kcal/mol
